# Measured values of several laboratories.
# Every numbered part comes from another study and shows a few of its results, in no order. Substitutions count along the parent as printed.

# Series 1
# Target: Interferon regulatory factor 3, full length, phosphomimetic (IRF3, Homo sapiens, UniProt Q14653, residues 1-427, S386D/S396D/S398D/S402D/T404D/S405D)
# Technique: protein-binding microarray
# Form: double-stranded DNA, one strand shown
# Medium: in vitro
# Tested at: 2540 nM top
# Setting: 60-bp whole probe
# Added: salmon DNA 0.4 mg/ml
# Reference: random background probes
# Reading: higher = stronger binding
# Constant ends, left off below: GCCTAGCAC … GTCTTGATTCGCTTGACGCTGCTG
# Target sequence (chain): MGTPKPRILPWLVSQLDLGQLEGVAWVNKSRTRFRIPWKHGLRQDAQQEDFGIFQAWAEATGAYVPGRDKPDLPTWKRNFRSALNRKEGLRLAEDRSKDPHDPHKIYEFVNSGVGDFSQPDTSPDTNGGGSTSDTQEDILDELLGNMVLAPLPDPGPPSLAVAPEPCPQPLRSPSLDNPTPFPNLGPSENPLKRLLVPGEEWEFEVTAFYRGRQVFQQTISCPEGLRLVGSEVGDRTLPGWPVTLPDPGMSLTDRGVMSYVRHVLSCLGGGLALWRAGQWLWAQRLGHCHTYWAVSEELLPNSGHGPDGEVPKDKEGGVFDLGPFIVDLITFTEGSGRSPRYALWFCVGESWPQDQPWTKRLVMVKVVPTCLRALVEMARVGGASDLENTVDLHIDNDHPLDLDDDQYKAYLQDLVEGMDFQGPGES
Strand,fitted relative affinity [z-score]
GCCGGTATCGGGACTGGGGACGTGCTA,2.06
TTAGGCATCGACTATCGGTTAGTGCTA,-0.474
GACGGACTGGACTATCTGGACGTGCTA,-0.358
TTACGTCTCCTACTGCTTTAGTGCTAG,0.787
TTAGGTTTCCTTATCCCTTAGTGCTAG,7.65
GACGGGTTCGACACTGGGGACGTGCTA,-0.364
GACGATATCGGGTATCGAGAGGTGCTA,0.0904
GACAATTTCGGGTTTCGAGACGTGCTA,2.83
GACGAACTGAGTTTCGAGTCGTGCTAG,1.67
ACAGAACTCAACTGTCTGCCTGTGCTA,-0.151
GACGGTTTCGGGTATCGCGACGTGCTA,4.27
TACAAATCCAGCCCTACAGAGTGCTAG,-0.0184
TCATGTGCCCATCTCTGACTGTGCTAG,1.22
TTAGAACTGAGTATCCATTAGTGCTAG,0.84
TTAGGTATCCTACTGCATTAGTGCTAG,2.52
GACGAACTGAGACAGGAGACGTGCTAG,0.0124
GACGGAATGCTTTTCCTGACGTGCTAG,0.281
TTAGATTTCAGTCTAGATTAGTGCTAG,1.54
GACGAACTAGGGTATCGAGACGTGCTA,-0.307
GACGATTGCAGTTTCGAGACGTGCTAG,2.76
TTAGAACTGGGGGCTGGATTAGTGCTA,-0.377
TTAGGTTTCGACACTGGGTGAGTGCTA,2.54
TTAGGTTTCGGGTATCGGTTTGTGCTA,5.03
GTAGGACTGGGTTTCGGTTAGTGCTAG,3.19
GACGATATCAGTATCGAGAAGTGCTAG,1.06

# Series 2
# Target: ATF1, bZIP domain (human)
# Technique: DHFR protein complementation
# Medium: yeast
# Setting: single substitutions, most at no-binding floor
# Reference: wild-type JUN-FOS pair
# Reading: higher = stronger binding
# Starting sequence: JUN, bZIP domain (human); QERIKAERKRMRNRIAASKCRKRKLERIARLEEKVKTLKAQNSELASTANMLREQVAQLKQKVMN; partner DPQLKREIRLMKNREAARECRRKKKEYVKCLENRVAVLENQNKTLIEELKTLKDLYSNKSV
Change,binding fitness [natural log]
R30S,-1.41
K36F,-1.56
K36E,-1.51
A29C,-1.4
M51H,-1.54
A46Q,-1.26
M51K,-1.53
L59Q,-1.18
N42P,-1.55
V35N,-1.55
K34W,-1.43
S43C,-1.49
R53I,-1.55
L38S,-1.53
Q41L,-1.58
T37A,-1.51
Q41H,-1.47
E32R,-1.55

# Series 3
# Target: Sal-like protein 4, full length isoform A (SALL4, Homo sapiens, UniProt Q9UJQ4, residues 1-1053)
# Sequence of UniProt Q9UJQ4 (whole entry, looked up): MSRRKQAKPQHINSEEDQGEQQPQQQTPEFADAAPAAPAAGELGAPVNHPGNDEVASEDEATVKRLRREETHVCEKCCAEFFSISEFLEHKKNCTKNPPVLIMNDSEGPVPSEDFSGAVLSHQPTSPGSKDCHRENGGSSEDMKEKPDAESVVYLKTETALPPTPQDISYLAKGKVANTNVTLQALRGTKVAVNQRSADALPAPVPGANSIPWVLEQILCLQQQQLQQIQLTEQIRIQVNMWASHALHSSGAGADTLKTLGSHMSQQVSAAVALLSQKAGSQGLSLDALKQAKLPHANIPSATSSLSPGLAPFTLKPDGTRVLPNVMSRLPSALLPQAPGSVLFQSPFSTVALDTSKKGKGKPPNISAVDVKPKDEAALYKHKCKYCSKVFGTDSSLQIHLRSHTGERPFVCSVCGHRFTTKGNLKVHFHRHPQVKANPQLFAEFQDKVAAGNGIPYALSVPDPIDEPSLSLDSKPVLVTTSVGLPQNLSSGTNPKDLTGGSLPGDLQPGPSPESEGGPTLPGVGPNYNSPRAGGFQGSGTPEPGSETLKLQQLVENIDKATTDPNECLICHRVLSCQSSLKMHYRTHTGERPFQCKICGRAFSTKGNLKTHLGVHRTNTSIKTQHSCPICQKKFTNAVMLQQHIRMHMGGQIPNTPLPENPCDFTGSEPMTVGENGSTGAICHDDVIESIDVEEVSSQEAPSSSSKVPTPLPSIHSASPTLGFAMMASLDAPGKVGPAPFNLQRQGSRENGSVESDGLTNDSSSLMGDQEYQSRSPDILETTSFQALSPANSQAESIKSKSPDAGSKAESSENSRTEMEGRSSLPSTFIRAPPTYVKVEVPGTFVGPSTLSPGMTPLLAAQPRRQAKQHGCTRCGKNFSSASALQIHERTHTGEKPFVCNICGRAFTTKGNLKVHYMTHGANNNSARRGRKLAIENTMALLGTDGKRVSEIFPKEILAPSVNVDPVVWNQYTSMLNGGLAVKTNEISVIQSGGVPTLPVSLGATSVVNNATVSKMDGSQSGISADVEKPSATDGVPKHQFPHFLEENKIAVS
# Technique: universal PBM
# Form: double-stranded DNA, one strand shown
# Medium: in vitro
# Tested at: 600 nM
# Setting: 8-mer, flanks averaged, mean of replicates
# Reading: higher = stronger binding
Strand,E-score
ACCTACCC,-0.27
AGTGGCGC,-0.167
CTGAGTCA,-0.0729
CACTGTAA,0.165
GAGGTATC,-0.154
ATTCACCA,0.099
ACGGGGCG,-0.225
CAAGAACC,0.0147
AAGGGAGT,-0.238
ACAGGGCC,-0.256
TCTCTAAA,0.13
CAGTTGAC,-0.0312
CAGTTGTA,-0.00441
CGCGGCAC,-0.294
CTTCCGTC,-0.222
ATCCATGC,0.0828
CGTTCGAA,0.0315
CCGTTTAA,0.114
CGCACTGC,-0.155

# Series 4
# Target: Histone acetyltransferase KAT6A, winged helix 1, GST fusion (KAT6A, Homo sapiens, UniProt Q92794, residues 1-85)
# Technique: protein binding microarray
# Form: double-stranded DNA, one strand shown
# Medium: in vitro
# Tested at: not given
# Setting: 8-mer, flanks averaged, mean of 2 arrays, mostly near background
# Reference: not given
# Reading: higher = stronger binding
# Residues (chain): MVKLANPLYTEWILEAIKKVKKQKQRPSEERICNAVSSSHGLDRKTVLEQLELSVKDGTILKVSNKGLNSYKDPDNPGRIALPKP
Strand,E-score
AGCTATCA,-0.0194
AATAACTA,-0.126
CGGAGTCA,0.197
ATACTATG,-0.0443
CCGACTCC,0.158
ATGCGCCG,0.43
AGGTTCAG,-0.233
CCGACAAG,0.119
TTCGTAAA,-0.162
CGTGGTGC,0.0774
GGTCATAC,0.142
ACGGCAGC,0.335
ACCCCTGC,-0.183
TGTGGAAA,-0.217
ACAAAGTA,-0.199
GAGTTCAC,-0.15
CCGATACA,0.121
ATGTGCGA,0.11

# Series 5
# Target: Centromere-binding protein 1, full length, N-terminal tag (CBF1, Saccharomyces cerevisiae, UniProt P17106, residues 1-351)
# Sequence of UniProt P17106 (whole entry, looked up): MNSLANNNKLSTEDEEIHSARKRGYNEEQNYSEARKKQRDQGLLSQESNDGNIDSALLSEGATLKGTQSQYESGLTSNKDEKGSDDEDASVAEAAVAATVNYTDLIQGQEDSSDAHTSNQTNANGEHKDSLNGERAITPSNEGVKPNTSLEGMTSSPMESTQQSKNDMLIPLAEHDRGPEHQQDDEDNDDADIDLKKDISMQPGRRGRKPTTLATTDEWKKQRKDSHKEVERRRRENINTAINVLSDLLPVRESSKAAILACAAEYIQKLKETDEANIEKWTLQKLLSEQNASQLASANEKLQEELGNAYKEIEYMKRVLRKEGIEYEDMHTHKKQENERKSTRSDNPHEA
# Technique: protein-binding microarray
# Form: double-stranded DNA, one strand shown
# Medium: in vitro
# Tested at: 0.8 µM
# Setting: whole 60-bp probe, no competitor
# Reading: higher = stronger binding
# Constant ends, left off below: … GTCTTGATTCGCTTGACGCTGCTG
Strand,fluorescence intensity [a.u.]
GAAGAAACCCGTGGGCACGTGGCTGTTATATTTTAG,9550
CTATAGACTTCCTTATGCCTGATGTCCTTCCACTTC,534
CTATTATGTGGGTTAAACGTGGGAGGAGAACTATTC,532
CTAGTTAAAATGAACCATGTGCAAATCAGAAACTTC,793
GAATTCCAAGTCTCACACGAGGCCTTTGTATTTTAG,494
GAACTACATCAAAATCACCTGTGCAATATATATTAG,851
CTAAGCCAGATCCCGCTCGTGGGCGTGTTCATTTTC,587
GAATCTTTTATTTATCACCCGCTGAAGCACGCATAG,563
CTATATCATCAGCATCACCCTCACTATCGGTAGTTC,547
GAACAGACTCTCCTGCACGTTCCATACTATGTTTAG,607
GAAGGTTCTACCTCCCACCTGCAAGGGGTCGTGTAG,487
CCTAACTACTATAGCATCATGACATAGCTTCGTACA,534
CTACTATACATCAACATCAGCATCAAAATTAACTTC,521
CTATCCTTTCACGTGATGCGCTGGGATGTTATCTTC,16400
CTATTTTCACTTTGTCTGGTGATCTTGGGGAATTTC,677
CTACATAGAATTGTTCACGTGGTCTAAATATGTTTC,7830
CTACCATTTTTTTCCCTGATGTTCAGCAAACCGTTC,553
TGTACGAAGCTATACAACATCAGTATAGTAGTTAGG,557
TGTACGAAGCTATATTGCGTGTATATAGTAGTTAGG,515
CTAGAAGGAACATAACACGTTACTATTTGTCTATTC,614
GAATAATATACTGGTAGTGTGACTACTAGTTGATAG,983
GAAAGCTAAGAATTTCACATGTTGTTGAACTTATAG,591
CTAAGTCAGCATCATCATATGAAAATACTTCATTTC,528
GAATATTGTTTTCACCATGTGAACAAAGCTGTATAG,716
TGTACGAAGCTATTGCACGTTCTTATAGTAGTTAGG,595

# Excerpt of the above (series 2):
Change,binding fitness [natural log]
A29C,-1.4
M51H,-1.54
A46Q,-1.26
M51K,-1.53
L59Q,-1.18
N42P,-1.55
V35N,-1.55
K34W,-1.43
S43C,-1.49
R53I,-1.55
L38S,-1.53
Q41L,-1.58
T37A,-1.51
Q41H,-1.47
E32R,-1.55
